Measurements collected from several papers.
Each numbered part is a random draw from the data of one study; scales do not carry over between parts. Substitutions count along the parent as printed.

Series 1
Target: Interferon regulatory factor 3, full length, phosphomimetic (IRF3, Homo sapiens, UniProt Q14653, residues 1-427, S386D/S396D/S398D/S402D/T404D/S405D)
Method: protein-binding microarray
Form: double-stranded DNA, one strand shown
Sample: in vitro
Tested at: 2540 nM top
Notes: 60-bp whole probe
With: salmon DNA 0.4 mg/ml
Relative to: random background probes
Reading: higher = stronger binding
Constant ends, left off below: GCCTAGCAC … GTCTTGATTCGCTTGACGCTGCTG
Residues (chain): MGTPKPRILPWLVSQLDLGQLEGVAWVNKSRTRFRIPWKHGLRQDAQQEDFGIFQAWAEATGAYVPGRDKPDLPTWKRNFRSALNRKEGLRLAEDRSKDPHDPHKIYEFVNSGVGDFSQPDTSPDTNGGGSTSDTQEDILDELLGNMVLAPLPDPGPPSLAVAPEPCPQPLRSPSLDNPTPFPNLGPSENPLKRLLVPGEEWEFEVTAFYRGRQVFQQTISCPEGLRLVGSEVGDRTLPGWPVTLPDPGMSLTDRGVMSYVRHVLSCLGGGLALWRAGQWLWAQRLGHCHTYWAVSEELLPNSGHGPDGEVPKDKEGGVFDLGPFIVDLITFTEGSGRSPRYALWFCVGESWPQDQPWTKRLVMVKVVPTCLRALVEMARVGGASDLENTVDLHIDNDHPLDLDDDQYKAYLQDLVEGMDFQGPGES
Sequence	fitted relative affinity [z-score]
GCTTCCTCCTACCCGACCCCGTGCTAG	0.692
TTAGAACTGGGGTCTCGATTAGTGCTA	-0.992
AGCAAGCCCCTTCCTTTCGGGTGCTAG	-0.102
AACGGACTGCTTATCCTGACGTGCTAG	-0.149
TTAGGTATCCTTATCATTTAGTGCTAG	5.14
TTAGCTTTCAGTCTCGATTAGTGCTAG	2.53
GGTTTTTTTTTAATTGAAATGTGCTAG	2.31
GACGGACTGGATATCGGGACGTGCTAG	-0.32
GACGGTTTCGGTTCCGGGCCGTGCTAG	9.57
TCAAGTTTCCCTCCCTGACTGTGCTAG	4.83
GAGGAGGGGCTGTTACTCTCGTGCTAG	-0.855
GACGGTTTCGGAGTGGGGACGTGCTAG	5.12
CCAACACTCGGTTTCCAAATGTGCTAG	4.73
GACGATATCGGGTATCGAGCCGTGCTA	-0.135

Series 2
Substance: PhoQ, residues 284 288 289 292 302 303 GANMMA
Method: Sort-seq
Refers to: YFP reporter
Sample: E. coli
Notes: PhoQ-PhoP variant library
With: 10 µM Mg2+
Relative to: high Mg2+ state
Reading: higher = stronger signaling
target	fold induction
PhoP, residues 12 14 15 18 19 AYFRS (Escherichia coli, UniProt P23836)	3.16
PhoP, residues 12 14 15 18 19 SFCSL (Escherichia coli, UniProt P23836)	15.9
PhoP, residues 12 14 15 18 19 HHYTI (Escherichia coli, UniProt P23836)	8.66

Series 3
Target: Sal-like protein 4, full length isoform B (SALL4, Homo sapiens, UniProt Q9UJQ4-2, residues 1-616)
Method: universal PBM
Form: double-stranded DNA, one strand shown
Sample: in vitro
Tested at: not given
Notes: 8-mer, flanks averaged, mean of replicates
Reading: higher = stronger binding
Target sequence (chain): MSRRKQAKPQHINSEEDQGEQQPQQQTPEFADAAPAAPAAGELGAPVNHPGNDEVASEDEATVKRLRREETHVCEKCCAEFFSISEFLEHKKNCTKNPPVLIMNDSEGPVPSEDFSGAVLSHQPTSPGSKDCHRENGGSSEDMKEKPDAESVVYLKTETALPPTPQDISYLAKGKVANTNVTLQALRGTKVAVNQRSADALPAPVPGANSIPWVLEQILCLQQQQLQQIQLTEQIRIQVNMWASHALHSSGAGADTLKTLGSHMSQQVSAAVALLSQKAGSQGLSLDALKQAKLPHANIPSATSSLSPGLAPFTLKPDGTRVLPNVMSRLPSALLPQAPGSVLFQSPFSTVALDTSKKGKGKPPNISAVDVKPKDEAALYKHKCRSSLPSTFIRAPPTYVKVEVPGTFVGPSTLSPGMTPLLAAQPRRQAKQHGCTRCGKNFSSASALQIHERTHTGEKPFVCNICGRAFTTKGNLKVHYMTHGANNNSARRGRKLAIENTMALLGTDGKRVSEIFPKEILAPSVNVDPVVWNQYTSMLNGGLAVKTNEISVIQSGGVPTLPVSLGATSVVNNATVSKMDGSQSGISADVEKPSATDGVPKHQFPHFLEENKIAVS
Sequence	E-score
AGAACGAG	0.02
AGCAACTC	-0.196
CGCACGGA	-0.133
AAAGTGGC	-0.0757
AGCGTGGC	-0.183
ACCCTTTA	0.106
CTGCTTGA	-0.106
GTTGATGA	0.159
CCGAAGTA	-0.038
TAGTAGAA	0.112
CTCCCCAC	-0.192
CTACGAAA	0.0751
CAACACTC	-0.103
AAATTTAG	0.274
ATGAATAG	0.255
ACGACCAC	-0.252
AACAGTCT	0.097
AAGCTCGT	-0.144
AAGTGACT	0.051

Series 4
Target: CCND2, cyclin fold, Cln2 fusion (human)
Method: yeast growth competition, sequencing
Sample: yeast
Notes: weak parent motif
Relative to: not given
Reading: higher = stronger binding
Parent: CDKN1A docking peptide (human); SKACRRLFGPVDS
Change	normalised enrichment score
SKAGRRLFGPVDS [C4G]	0.078
SKACYRLFGPVDS [R5Y]	0.303
SKAIRRLFGPVDS [C4I]	0.535
SPACRRLFGPVDS [K2P]	0.957
SKACRRLFGPYDS [V11Y]	0.586
SKPCRRLFGPVDS [A3P]	0.445
SKACRRLFLPVDS [G9L]	0.371
SKACRRLRGPVDS [F8R]	0.0556
SKACRRPFGPVDS [L7P]	0.0804

For quick reference, copied from above (series 3):
Sequence	E-score
GTTGATGA	0.159
CCGAAGTA	-0.038
TAGTAGAA	0.112
